Measurements of several laboratories.
“And” joins repeats or separate records; there may be more than shown. ± marks the error that the study gave.

For `O=S(=O)(N[C@H]1CCO[C@@H](C2c3ccc(F)cc3CCc3cc(F)ccc32)C1)c1ccc(OC(F)(F)F)cc1`, protein level read “decreased” (D425; immunoblot, item: CCL2; concentration not given).
For `O=C(CN1CCCCC1)Nc1ccc([C@H]2[C@@H](F)[C@@H](F)C[C@@H](F)[C@H]2F)cc1`, the hepatic clearance was 49 mL/min/kg (cryopreserved mouse hepatocytes; 1 µM).
With `CNS(=O)(=O)Nc1nccc(Cc2c(C)c3ccc(Oc4ncccc4F)cc3oc2=O)c1F` the IC50 was greater than 1 µM (CMK-11-5; cell viability; 7 days).
The cell lysis of `CC(=O)N[C@@H](Cc1ccc(I)cc1)C(=O)N[C@@H](CCC(=O)O)C(=O)N[C@H](C(=O)N[C@@H](CC(=O)O)C(=O)COC(=O)c1c(C)cccc1C)[C@@H](C)O` is reported as 64.3% (THP-1 cells, LPS-primed; pyroptosis, LDH release; 25 µM, LPS 1 µg/mL, 4 h, added: nigericin 5 µM, 2 h).
`CC(C)(C)c1ccc([C@H](O)C[C@H](CO)NC(=O)CCCCCOc2ccc3ccccc3c2)cc1` has an SM/Cer ratio of 23 ,0 and 20 ,0 (HeLa; HPLC-MS-MS lipidomics, item: C20 SM and ceramide; 1 µM, 24 h; baseline: SM over Cer).
`O=C(C[Se]C(=O)c1cc2ccccc2s1)Nc1cccc(C(F)(F)F)c1` has a TGI of 3.04 µM (NCI60 NSCLC subpanel mean; cell growth).
The inhibition of `CCC(=CCc1c(O)cc2c(c1O)C(=O)CC(c1cc(OC)ccc1O)O2)CC` (centres unmarked) is reported as 0.356% (HeLa; cell growth or viability, MTT; 0.781 µM, 48 h).
`COc1cc(N2CCN(C(=O)C3CCCN3)CC2)ccc1Nc1ncc(Cl)c(Nc2ccccc2P(C)(C)=O)n1` (centres unmarked) — result for “late apoptotic cells”: 2.7% (Ba/F3 EML4-ALK; annexin V flow cytometry; concentration not given, 0.5 h).
Under “log2 fold change”, `Cn1ncc2cc(-c3cncc(Cl)c3N3CCC4(CCNC4=O)CC3)ccc21` is recorded as -1.33 (LS174T; gene expression, microarray, item: RNF183 mRNA; concentration not given, 4 h; baseline: untreated cells).
For `Cc1ncsc1-c1ccc(C(C)NC(=O)C2CC(O)CN2C(=O)C(NC(=O)CCCCCCCCCCN2CCCC(Nc3ncc(Cl)c(Nc4ccccc4S(=O)(=O)C(C)C)n3)C2)C(C)(C)C)cc1` (centres unmarked), “log2 fold change” read -1.85 (22Rv1; RNA-seq, item: PDE9A mRNA; concentration not given; baseline: DMSO).
`N#C[C@@H]1CC(F)(F)CN1C(=O)CNC(=O)c1ccnc2ccc(OCCCN3CCN(C(=O)CCc4ccc5c(c4)CN4CCN(Cc6cc(CCC(=O)O)ccc6O)CC(=O)[O][Al-]([18F])([O]C(=O)C4)[O]5)CC3)cc12` (some centres unmarked) gave an internalized fraction of 89.2 ± 0.6% (HT1080 cells expressing human FAP; 90 min, 37 °C).
For `CN1CCCNC(=O)c2cccc(c2)C(=O)NCCCN(C)CCCNc2cccc3c2C(=O)c2cccc(c2C3=O)NCCC1`, “log2 fold change” read -0.51 (SAS; RNA-Seq, item: MELK mRNA; 1 µM, 6 h; baseline: untreated cells).
`CC12CCCC(NS(=O)(=O)c3ccc(Br)cc3)(C1)C1CC(C)(C)C1CC2` (centres unmarked) gave an inhibition of 15.8% (HT-29; cell growth or viability, CCK-8; 50 µM).
For `CCC(=CCc1c(O)cc2c(c1O)C(=O)CC(c1ccc(OC)c(O)c1)O2)CC` (centres unmarked), the inhibition was 9.32% (HeLa; cell growth or viability, MTT; 3.125 µM, 48 h).
Under “calcium mobilisation signal”, `O=c1cc(Cn2ccnc2)c2cc3c(cc2o1)CCC3` is recorded as 2.82 ± 1.66 (COS-7 (untransfected); 500 µM, unit not given; baseline: 3 µM ionomycin).
`CC(C)(C)c1cc(-c2ccc3cccnc3n2)nc(-c2ccc3cccnc3n2)c1.COc1ccncc1.[Cl-].[Cl-].[Ru+2].c1ccc2cc3nc4c5cccnc5c5ncccc5c4nc3cc2c1` gave an EC50 of 71 ± 3.5 µM (SK-MEL-28; photocytotoxicity; visible light 400-700 nm, 100 J/cm2, oxygen 1%).
`CC(=O)c1ccc(S(=O)(=O)NC23CCCC(C)(CCC4C2CC4(C)C)C3)cc1` (centres unmarked) has an inhibition of less than 50% (HT-29; cell growth or viability, CCK-8; 10 µM).
`Nc1ncc(-c2ccc([C@H]3[C@@H](F)[C@@H](F)C[C@@H](F)[C@H]3F)cc2)cn1` has a hepatic clearance of 6.2 mL/min/kg (hepatocyte stability; cryopreserved human hepatocytes; 1 µM).
The inhibition of `COc1ccc(CNC[C@@](O)(COCc2ccccc2)[C@@H]2CC[C@@H](C)C[C@H]2OCc2ccccc2)cc1` is reported as 99% (A2780; cell growth or viability, MTT; 10 µM, 72 h).
For `CC[C@H](C)[C@H](NC(=O)[C@H](CO)NC(=O)[C@H](Cc1ccc(O)cc1)NC(=O)[C@H](CC(=O)O)NC(=O)[C@H](CO)NC(=O)[C@@H](NC(=O)[C@H](Cc1ccccc1)NC(=O)[C@@H](NC(=O)CNC(=O)[C@H](CCC(=O)O)NC(=O)[C@H](C)NC(=O)[C@@H](N)Cc1ccc(O)cc1)[C@@H](C)O)[C@@H](C)CC)C(=O)N[C@@H](C)C(=O)N[C@@H](CCSC)C(=O)N[C@@H](CC(=O)O)C(=O)N[C@@H](CCCCN)C(=O)N[C@H](C(=O)N[C@@H](Cc1c[nH]cn1)C(=O)N[C@@H](CCC(N)=O)C(=O)N[C@@H](CCC(N)=O)C(=O)N[C@@H](CC(=O)O)C(=O)N[C@@H](Cc1ccccc1)C(=O)N[C@H](C(=O)N[C@@H](CC(N)=O)C(=O)N[C@@H](Cc1c[nH]c2ccccc12)C(=O)N[C@@H](CC(C)C)C(=O)N[C@@H](CC(C)C)C(=O)N[C@@H](C)C(=O)N[C@@H](CCC(N)=O)C(=O)N[C@@H](CCCCN)C(=O)NCC(=O)N[C@@H](CCCCN)C(=O)N[C@@H](CCCCN)C(=O)N[C@@H](CC(N)=O)C(=O)N[C@@H](CC(=O)O)C(=O)N[C@@H](Cc1c[nH]c2ccccc12)C(=O)N[C@@H](CCCCN)C(=O)N[C@@H](Cc1c[nH]cn1)C(=O)N[C@@H](CC(N)=O)C(=O)N[C@H](C(=O)N[C@H](C(=O)N[C@@H](CCC(N)=O)C(=O)O)[C@@H](C)O)[C@@H](C)CC)C(C)C)[C@@H](C)CC`, “GIPR homomer subcellular localisation” read “no effect” (HeLa, SYFP2-GIPR and GIPR-mTurquoise; TIRF microscopy; 1 µM).

Repeated from above:
For `O=C(CN1CCCCC1)Nc1ccc([C@H]2[C@@H](F)[C@@H](F)C[C@@H](F)[C@H]2F)cc1`, the hepatic clearance was 49 mL/min/kg (cryopreserved mouse hepatocytes; 1 µM).
With `CNS(=O)(=O)Nc1nccc(Cc2c(C)c3ccc(Oc4ncccc4F)cc3oc2=O)c1F` the IC50 was greater than 1 µM (CMK-11-5; cell viability; 7 days).
